Assay results from different studies.
Every numbered part comes from another study and shows a few of its results, in no order. Substitutions count along the parent as printed.
Chain of UniProt Q5VT25 (whole entry, looked up): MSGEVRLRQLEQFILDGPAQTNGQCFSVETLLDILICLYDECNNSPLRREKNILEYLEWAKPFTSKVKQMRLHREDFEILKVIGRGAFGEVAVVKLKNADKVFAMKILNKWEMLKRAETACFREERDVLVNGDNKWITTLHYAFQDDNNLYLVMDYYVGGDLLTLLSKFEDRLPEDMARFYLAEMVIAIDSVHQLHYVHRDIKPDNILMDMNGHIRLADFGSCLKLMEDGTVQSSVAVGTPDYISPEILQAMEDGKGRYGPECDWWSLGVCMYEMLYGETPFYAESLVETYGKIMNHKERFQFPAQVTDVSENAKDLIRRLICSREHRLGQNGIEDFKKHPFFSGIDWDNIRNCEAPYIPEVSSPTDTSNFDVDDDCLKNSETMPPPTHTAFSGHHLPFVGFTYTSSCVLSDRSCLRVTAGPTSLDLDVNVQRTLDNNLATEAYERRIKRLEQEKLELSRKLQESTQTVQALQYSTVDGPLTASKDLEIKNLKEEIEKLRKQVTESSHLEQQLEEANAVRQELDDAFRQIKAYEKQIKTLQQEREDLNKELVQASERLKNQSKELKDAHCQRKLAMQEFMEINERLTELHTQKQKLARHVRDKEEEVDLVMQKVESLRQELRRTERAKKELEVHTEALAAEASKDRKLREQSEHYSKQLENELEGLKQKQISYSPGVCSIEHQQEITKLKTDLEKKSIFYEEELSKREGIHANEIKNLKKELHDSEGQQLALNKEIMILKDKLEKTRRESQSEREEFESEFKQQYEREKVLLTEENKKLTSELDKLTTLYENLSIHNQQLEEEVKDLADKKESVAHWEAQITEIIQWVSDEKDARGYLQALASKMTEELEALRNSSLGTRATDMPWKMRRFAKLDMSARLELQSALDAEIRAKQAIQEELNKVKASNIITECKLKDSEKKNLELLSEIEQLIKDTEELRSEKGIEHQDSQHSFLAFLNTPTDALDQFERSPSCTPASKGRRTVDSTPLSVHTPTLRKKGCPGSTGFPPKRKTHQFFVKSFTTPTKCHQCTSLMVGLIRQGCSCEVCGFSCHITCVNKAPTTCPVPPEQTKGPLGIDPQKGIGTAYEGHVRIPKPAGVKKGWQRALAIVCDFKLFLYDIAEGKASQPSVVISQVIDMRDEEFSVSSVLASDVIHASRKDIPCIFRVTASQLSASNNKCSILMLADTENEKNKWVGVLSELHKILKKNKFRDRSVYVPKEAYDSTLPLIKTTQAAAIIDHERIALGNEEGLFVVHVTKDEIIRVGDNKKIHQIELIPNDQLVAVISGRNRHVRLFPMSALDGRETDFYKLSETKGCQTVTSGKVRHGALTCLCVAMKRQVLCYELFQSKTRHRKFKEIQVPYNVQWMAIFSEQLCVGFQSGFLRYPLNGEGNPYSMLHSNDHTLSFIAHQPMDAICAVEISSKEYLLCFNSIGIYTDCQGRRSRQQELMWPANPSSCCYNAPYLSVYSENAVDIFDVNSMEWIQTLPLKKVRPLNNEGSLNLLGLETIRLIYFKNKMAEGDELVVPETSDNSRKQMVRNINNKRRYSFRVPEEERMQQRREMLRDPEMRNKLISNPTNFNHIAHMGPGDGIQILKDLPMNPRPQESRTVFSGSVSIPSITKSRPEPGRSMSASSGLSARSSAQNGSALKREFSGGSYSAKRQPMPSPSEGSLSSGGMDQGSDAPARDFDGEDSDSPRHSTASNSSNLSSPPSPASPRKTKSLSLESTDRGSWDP
Chain of UniProt Q9BYP7 (whole entry, looked up): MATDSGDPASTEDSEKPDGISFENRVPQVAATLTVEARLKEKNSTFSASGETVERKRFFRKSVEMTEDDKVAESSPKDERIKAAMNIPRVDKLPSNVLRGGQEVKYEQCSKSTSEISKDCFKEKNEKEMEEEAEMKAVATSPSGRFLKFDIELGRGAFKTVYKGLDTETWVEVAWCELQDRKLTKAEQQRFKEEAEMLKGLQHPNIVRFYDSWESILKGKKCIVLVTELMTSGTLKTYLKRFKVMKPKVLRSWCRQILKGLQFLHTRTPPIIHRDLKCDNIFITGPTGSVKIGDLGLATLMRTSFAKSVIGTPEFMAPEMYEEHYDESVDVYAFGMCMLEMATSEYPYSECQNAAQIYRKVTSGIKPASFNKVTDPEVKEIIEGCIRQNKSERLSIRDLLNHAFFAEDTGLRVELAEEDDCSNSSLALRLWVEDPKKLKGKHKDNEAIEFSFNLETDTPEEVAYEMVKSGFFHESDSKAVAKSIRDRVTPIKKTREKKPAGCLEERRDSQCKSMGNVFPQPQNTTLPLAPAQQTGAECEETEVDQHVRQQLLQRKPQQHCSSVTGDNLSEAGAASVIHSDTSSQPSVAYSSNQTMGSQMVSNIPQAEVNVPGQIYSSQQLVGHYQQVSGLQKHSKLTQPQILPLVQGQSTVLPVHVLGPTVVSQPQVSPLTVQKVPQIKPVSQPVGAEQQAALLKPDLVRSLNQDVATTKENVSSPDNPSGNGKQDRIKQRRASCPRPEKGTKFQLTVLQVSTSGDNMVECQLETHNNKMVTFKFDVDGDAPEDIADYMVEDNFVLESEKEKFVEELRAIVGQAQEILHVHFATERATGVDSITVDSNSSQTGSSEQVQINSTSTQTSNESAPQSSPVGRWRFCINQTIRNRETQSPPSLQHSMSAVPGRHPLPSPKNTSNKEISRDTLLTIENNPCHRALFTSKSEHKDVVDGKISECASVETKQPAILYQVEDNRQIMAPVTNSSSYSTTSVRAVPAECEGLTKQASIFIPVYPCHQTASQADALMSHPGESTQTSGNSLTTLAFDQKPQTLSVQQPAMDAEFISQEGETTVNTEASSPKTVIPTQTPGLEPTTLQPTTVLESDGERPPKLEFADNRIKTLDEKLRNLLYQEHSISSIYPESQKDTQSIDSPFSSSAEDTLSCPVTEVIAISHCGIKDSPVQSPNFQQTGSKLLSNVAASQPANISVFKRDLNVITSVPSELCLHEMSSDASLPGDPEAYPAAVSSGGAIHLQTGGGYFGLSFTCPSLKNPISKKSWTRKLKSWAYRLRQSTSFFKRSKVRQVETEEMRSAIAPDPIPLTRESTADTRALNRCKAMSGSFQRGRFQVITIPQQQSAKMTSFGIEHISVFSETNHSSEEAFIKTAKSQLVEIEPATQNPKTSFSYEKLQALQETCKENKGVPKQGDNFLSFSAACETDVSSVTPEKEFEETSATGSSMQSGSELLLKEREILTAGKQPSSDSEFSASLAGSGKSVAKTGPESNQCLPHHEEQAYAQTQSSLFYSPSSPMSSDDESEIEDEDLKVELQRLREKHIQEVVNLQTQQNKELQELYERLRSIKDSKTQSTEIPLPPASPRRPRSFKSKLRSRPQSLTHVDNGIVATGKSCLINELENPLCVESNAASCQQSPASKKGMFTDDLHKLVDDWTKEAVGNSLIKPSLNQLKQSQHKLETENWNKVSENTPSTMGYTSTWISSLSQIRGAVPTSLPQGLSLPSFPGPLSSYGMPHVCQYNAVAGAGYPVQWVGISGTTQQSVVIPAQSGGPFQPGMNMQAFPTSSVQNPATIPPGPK
Chain of UniProt Q6P2M8 (whole entry, looked up): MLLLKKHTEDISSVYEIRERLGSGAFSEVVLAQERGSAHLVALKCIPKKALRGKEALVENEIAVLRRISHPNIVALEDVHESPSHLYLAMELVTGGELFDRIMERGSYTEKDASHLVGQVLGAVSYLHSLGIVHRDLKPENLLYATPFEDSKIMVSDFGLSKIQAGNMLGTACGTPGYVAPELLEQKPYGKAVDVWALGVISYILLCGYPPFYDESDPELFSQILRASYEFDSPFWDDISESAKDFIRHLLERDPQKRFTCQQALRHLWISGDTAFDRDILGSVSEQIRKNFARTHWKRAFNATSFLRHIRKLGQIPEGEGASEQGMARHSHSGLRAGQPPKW
Chain of UniProt Q9H422 (whole entry, looked up): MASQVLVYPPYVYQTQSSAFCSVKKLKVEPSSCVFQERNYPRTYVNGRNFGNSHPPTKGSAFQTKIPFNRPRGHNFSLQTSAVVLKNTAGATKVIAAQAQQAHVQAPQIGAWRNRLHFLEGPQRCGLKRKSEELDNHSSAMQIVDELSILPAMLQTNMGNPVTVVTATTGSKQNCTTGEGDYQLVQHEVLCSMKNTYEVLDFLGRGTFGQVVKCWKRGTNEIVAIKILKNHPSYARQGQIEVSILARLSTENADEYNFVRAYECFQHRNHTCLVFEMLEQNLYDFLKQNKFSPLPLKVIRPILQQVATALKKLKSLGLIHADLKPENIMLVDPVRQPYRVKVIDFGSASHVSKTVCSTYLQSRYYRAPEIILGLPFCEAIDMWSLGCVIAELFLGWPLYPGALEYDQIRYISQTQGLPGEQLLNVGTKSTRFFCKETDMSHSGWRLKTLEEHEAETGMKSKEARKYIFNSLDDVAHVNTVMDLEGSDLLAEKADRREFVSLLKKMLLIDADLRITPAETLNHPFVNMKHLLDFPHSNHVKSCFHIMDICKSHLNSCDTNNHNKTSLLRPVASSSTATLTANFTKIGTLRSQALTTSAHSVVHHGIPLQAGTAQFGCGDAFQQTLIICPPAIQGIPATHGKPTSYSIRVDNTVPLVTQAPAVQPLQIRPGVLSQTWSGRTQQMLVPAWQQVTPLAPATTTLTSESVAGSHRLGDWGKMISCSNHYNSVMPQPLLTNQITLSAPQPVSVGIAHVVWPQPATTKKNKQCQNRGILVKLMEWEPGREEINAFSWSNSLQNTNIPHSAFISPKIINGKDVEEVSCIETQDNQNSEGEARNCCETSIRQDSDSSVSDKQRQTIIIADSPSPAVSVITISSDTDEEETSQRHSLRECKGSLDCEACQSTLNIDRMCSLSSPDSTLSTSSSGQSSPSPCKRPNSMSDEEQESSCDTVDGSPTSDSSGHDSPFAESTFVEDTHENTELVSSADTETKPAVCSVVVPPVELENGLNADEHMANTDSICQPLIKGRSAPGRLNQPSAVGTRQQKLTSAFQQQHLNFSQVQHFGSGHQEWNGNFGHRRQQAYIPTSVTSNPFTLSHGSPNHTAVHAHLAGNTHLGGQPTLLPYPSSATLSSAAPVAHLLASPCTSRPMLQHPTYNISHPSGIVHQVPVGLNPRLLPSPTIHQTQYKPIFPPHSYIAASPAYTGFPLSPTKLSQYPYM

Sample 1
Target: CCNB2, cyclin fold, Cln2 fusion (human)
Method: yeast growth competition, sequencing
Matrix: yeast
Setting: weak parent motif
Relative to: not given
Direction: higher = stronger binding
Endpoint: normalised enrichment score
Starting sequence: viral docking peptide; KGVKRKLFAEDSS; partner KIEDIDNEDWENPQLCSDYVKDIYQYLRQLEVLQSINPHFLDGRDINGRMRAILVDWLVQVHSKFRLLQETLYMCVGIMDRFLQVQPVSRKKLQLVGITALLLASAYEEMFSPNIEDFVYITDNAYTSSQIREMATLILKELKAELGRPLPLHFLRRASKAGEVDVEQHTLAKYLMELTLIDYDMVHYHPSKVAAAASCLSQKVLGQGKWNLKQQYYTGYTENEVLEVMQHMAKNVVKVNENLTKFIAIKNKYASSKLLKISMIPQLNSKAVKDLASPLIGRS
R5C: 0.948
E10H: 0.378
R5A L7A: 0.431
A9C: 0.812
V3W: -0.0823
G2D: 1.36
K1A: 0.949
G2A: 0.561
K6C: 0.28
E10R: 0.749
R5S: 0.181
F8S: -0.476
V3D: 0.0483
V3S: 0.169
F8G: 0.802
K6S: 0.523
K4L: 0.398
R5K: 0.657
L7H: 0.276
G2V: 0.95
D11P: 0.626

Sample 2
Target: HLA class I histocompatibility antigen, A alpha chain, allele A*80:01 (Homo sapiens, UniProt P04439)
Read-out: peptide-MHC binding
Form: peptide
Tested at: concentration not given
Endpoint: binding
KPPRGVLLY: inactive
SPGDNSAKF: inactive
RRFTQAIYD: inactive
EKLKKKSAF: inactive
GMSWITQGL: inactive
RSVWIPGRW: inactive
HTQAIEGAW: inactive
RNNDPTLPY: inactive
NSSYWRQGY: inactive
HTAEIQQFF: inactive
ILNHKFCNL: inactive
ETESATLFT: inactive
LAVFPAMFW: inactive
FLSFASLFL: inactive
ISSGETRSF: inactive
EMKEAFHGL: inactive
EYAPFARLL: inactive
KQIVIINPM: inactive
RAWDPQPAM: inactive
LAIVTTPLV: inactive
RYEFTAPFI: inactive

Sample 3
Target: Transcriptional repressor CTCF (CTCF, Homo sapiens, UniProt P49711, residues 1-727, full length assumed)
Method: protein-binding microarray
Form: double-stranded DNA, one strand shown
Matrix: in vitro
Tested at: not given
Setting: k-mer, scored over probes, only values ≥0.25
Direction: higher = stronger binding
Endpoint: E-score
Residues (chain): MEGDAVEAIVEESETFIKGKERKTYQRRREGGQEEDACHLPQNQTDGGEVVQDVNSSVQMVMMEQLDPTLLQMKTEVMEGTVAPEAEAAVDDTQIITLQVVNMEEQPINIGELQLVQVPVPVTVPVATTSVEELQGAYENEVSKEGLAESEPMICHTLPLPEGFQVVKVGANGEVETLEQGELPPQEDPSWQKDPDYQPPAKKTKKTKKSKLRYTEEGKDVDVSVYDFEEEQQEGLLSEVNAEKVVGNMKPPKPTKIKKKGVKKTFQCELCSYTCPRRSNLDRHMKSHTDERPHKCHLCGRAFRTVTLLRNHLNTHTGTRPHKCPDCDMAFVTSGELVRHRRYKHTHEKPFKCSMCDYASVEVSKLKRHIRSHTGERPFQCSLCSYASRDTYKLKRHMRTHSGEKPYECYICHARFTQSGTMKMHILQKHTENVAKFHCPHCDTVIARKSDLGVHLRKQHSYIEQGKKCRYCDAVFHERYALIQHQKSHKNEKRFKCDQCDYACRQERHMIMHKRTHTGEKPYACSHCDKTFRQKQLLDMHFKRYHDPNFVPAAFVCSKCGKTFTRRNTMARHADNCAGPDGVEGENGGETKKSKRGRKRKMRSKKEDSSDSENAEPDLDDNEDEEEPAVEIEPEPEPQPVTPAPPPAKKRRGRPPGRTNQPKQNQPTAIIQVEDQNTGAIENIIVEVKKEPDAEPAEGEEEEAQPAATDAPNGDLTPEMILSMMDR
AATTATAG: 0.277
AAAGCTGA: 0.328
CATATTAC: 0.26
AAACGGTA: 0.294
GGGCGCAA: 0.379
AATTAGTA: 0.267
GCAATTGC: 0.282
ATTAACAA: 0.276

Sample 4
Structure (SMILES): O=c1[nH]c2ccccc2n1C1CCN(Cc2ccc(-c3[nH]c4cc5ncnc5cc4nc3-c3ccccc3)cc2)CC1
Read-out: cell-free assay
Tested at: 0.5 µM
Endpoint: remaining signal
Serine/threonine-protein kinase MRCK alpha (CDC42BPA, Homo sapiens, UniProt Q5VT25): 105%
Homeodomain-interacting protein kinase 3 (HIPK3, Homo sapiens, UniProt Q9H422): 102%
Serine/threonine-protein kinase WNK3 (WNK3, Homo sapiens, UniProt Q9BYP7): 106%
Calcium/calmodulin-dependent protein kinase type 1B (PNCK, Homo sapiens, UniProt Q6P2M8): 95.5%
PAS domain-containing serine/threonine-protein kinase (PASK, Homo sapiens, UniProt Q96RG2): 110%
